Assay results gathered from unrelated publications.
Parts stem from different laboratories: compare values within a part only. Several values in a cell are separate wells, animals, samples, runs or records.
Chain of UniProt P52333 (whole entry, looked up): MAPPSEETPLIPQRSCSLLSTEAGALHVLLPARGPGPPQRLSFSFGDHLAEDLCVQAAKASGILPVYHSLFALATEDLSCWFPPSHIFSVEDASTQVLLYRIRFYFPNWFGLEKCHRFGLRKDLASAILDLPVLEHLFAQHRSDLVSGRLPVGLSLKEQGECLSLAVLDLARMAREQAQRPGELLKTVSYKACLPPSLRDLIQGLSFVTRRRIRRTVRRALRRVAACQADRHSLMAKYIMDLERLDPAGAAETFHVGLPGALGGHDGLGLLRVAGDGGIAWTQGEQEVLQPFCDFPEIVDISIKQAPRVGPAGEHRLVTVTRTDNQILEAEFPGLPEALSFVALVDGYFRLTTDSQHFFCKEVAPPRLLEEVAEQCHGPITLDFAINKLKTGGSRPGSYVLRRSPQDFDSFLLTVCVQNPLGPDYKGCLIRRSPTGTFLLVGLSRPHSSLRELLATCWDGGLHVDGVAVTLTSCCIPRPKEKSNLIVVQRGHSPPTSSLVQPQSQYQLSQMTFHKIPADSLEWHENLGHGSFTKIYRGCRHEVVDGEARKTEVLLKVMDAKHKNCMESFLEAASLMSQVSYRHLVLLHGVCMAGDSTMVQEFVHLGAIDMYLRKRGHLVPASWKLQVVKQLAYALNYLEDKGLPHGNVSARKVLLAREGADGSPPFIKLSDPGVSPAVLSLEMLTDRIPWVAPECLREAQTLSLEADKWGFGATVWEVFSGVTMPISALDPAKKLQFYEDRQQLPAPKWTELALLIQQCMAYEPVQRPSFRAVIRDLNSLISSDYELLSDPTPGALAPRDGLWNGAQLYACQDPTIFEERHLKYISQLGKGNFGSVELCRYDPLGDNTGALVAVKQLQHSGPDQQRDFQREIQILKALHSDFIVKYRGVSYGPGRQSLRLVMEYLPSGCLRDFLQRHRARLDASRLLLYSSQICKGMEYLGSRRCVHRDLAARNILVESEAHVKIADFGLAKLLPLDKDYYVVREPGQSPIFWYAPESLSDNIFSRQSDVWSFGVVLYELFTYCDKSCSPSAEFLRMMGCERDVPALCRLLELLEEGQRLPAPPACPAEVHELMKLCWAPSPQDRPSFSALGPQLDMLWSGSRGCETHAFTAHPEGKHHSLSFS
Chain of UniProt Q6PHR2 (whole entry, looked up): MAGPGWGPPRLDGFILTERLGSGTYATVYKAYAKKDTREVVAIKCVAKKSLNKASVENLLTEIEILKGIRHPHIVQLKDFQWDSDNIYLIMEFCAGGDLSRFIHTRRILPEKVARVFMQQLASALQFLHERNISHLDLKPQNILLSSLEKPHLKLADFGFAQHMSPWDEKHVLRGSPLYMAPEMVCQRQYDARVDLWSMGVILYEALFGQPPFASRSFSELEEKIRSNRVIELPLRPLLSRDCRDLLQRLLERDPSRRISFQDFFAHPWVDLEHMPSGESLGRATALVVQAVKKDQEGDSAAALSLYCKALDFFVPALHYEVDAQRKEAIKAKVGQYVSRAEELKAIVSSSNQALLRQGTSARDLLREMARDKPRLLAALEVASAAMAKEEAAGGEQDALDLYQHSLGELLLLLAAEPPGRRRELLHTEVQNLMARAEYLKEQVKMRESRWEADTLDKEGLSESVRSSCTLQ
Chain of UniProt P30291 (whole entry, looked up): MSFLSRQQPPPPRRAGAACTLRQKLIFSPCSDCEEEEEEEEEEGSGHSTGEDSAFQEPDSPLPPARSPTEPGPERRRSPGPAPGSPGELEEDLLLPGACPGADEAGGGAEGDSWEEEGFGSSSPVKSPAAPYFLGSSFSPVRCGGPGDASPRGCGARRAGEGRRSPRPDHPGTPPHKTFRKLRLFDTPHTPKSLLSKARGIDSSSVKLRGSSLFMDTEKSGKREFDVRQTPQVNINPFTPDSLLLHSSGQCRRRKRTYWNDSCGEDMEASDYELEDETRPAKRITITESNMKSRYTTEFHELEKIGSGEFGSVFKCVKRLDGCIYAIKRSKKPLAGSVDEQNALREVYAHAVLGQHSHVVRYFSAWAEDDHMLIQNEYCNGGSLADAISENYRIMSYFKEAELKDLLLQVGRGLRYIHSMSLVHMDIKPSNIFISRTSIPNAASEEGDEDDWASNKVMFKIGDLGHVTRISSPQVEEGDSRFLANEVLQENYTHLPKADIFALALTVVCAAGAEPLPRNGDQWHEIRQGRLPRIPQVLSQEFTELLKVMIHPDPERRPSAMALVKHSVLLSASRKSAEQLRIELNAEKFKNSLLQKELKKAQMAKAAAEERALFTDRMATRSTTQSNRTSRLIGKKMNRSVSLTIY
Chain of UniProt P06239 (whole entry, looked up): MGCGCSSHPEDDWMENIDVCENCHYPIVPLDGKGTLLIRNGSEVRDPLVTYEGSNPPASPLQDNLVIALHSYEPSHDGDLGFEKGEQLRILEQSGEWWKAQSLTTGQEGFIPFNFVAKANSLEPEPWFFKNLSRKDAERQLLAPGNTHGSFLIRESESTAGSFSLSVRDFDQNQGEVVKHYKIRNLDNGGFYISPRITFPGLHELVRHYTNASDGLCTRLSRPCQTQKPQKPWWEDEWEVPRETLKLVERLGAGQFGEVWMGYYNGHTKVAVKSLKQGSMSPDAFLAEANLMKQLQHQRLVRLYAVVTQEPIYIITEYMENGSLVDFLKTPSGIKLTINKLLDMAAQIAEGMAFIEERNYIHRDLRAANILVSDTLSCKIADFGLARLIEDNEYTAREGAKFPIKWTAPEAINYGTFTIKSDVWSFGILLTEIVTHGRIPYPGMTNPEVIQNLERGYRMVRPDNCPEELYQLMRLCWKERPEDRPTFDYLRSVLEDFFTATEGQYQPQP
Chain of UniProt Q8NEB9 (whole entry, looked up): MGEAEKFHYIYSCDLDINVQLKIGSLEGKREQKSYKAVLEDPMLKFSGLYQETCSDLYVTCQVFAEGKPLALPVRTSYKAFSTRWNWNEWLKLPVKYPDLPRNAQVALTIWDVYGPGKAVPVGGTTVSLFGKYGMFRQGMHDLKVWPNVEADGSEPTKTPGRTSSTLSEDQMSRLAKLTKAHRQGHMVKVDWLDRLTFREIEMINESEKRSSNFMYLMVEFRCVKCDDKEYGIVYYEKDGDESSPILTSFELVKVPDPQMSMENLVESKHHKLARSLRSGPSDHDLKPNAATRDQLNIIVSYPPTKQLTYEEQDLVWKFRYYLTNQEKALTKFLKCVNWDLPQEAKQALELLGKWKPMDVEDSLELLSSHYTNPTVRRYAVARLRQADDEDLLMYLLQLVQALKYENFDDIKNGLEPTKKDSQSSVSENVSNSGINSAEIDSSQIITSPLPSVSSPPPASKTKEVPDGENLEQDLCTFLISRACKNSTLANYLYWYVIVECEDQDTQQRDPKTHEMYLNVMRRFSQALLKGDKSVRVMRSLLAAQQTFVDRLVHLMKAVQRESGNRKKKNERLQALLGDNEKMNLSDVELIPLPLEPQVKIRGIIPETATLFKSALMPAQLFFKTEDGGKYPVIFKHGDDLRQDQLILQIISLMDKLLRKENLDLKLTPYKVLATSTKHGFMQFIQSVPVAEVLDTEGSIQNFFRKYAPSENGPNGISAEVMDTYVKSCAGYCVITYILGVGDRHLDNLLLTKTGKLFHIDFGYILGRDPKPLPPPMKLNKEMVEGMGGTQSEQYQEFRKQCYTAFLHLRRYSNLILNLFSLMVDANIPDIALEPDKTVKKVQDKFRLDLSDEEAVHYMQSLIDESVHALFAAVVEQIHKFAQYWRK
Chain of UniProt P78368 (whole entry, looked up): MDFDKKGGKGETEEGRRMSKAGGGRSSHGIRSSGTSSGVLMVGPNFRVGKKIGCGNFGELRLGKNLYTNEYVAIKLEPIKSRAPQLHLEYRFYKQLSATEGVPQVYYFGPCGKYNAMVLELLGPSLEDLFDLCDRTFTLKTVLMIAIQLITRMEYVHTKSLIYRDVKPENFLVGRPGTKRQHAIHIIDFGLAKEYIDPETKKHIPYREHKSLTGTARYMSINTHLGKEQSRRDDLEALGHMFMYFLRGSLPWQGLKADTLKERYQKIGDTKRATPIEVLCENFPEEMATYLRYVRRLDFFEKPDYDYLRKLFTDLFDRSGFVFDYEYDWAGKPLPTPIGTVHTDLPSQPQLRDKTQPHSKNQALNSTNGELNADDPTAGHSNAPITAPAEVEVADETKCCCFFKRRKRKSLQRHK
Chain of UniProt P49674 (whole entry, looked up): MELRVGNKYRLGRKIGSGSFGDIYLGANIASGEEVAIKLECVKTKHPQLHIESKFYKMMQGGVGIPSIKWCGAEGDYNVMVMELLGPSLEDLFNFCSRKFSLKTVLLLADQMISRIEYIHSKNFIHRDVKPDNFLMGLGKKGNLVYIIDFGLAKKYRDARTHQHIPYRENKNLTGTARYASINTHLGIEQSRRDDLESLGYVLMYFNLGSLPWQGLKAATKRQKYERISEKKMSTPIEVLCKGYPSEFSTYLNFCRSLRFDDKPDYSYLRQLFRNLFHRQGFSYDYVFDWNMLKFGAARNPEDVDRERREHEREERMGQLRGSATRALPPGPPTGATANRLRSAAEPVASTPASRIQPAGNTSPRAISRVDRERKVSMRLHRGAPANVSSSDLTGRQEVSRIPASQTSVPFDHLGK
Chain of UniProt Q9HBY8 (whole entry, looked up): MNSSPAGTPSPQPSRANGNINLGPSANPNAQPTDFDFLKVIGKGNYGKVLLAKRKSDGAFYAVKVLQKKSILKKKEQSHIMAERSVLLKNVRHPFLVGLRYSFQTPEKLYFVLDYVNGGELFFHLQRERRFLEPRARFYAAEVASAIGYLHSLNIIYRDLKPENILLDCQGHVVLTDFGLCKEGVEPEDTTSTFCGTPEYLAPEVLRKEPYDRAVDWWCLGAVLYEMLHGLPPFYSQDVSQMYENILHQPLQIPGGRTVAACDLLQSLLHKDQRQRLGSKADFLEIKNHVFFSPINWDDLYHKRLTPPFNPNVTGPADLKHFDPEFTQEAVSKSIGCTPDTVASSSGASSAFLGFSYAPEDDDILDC

Sample 1
SMILES: c1ccc2c(-c3ccncc3)c[nH]c2c1
Effect on: enzyme activity
Action: inhibitor
Tested at: 0.5 µM
Relative to: control
target	remaining activity
Angiopoietin-1 receptor (TEK, Homo sapiens, UniProt Q02763)	101%
Mitogen-activated protein kinase kinase kinase 5 (MAP3K5, Homo sapiens, UniProt Q99683)	109%
Tyrosine-protein kinase Mer (MERTK, Homo sapiens, UniProt Q12866)	93%
Casein kinase I isoform gamma-3 (CSNK1G3, Homo sapiens, UniProt Q9Y6M4)	108%
Serine/threonine-protein kinase ULK3 (ULK3, Homo sapiens, UniProt Q6PHR2)	83%
Mitogen-activated protein kinase kinase kinase 14 (MAP3K14, Homo sapiens, UniProt Q99558)	112%
Tyrosine-protein kinase Lck (LCK, Homo sapiens, UniProt P06239)	102%
Serine/threonine-protein kinase Nek6 (NEK6, Homo sapiens, UniProt Q9HC98)	93.4%
Tyrosine-protein kinase JAK3 (JAK3, Homo sapiens, UniProt P52333)	95.3%
Serine/threonine-protein kinase TAO2 (TAOK2, Homo sapiens, UniProt Q9UL54)	92.1%
Casein kinase I isoform gamma-2 (CSNK1G2, Homo sapiens, UniProt P78368)	95%
Wee1-like protein kinase (WEE1, Homo sapiens, UniProt P30291)	89.3%
MAP kinase-activated protein kinase 2 (MAPKAPK2, Homo sapiens, UniProt P49137)	101%
Tyrosine-protein kinase FRK (FRK, Homo sapiens, UniProt P42685)	106%
Tyrosine-protein kinase ABL2 (ABL2, Homo sapiens, UniProt P42684)	91.9%

Sample 2
Target: GTPase KRas (KRAS, Homo sapiens, UniProt P01116, Q61R)
Effect on: binding
Action: competitor
Method: NanoBRET
Cell line: HEK293
Tested at: 33.3 µM
Compound	normalized BRET
CC(=O)N1CCN(c2nc(OC[C@@H]3CCCN3C)nc3c2CCN(c2cccc4cccc(Cl)c24)C3)C[C@@H]1CC#N	105% and 128% and 84.9%
CN1CCC[C@H]1COc1nc2c(c(N3CCN(S(C)(=O)=O)[C@@H](CC#N)C3)n1)CCN(c1cccc3cccc(Cl)c13)C2	64.8% and 94.6% and 62.4%
CC(C)C(=O)N1CCN(c2nc(OC[C@@H]3CCCN3C)nc3c2CCN(c2cccc4cccc(Cl)c24)C3)C[C@@H]1CC#N	142% and 118% and 134%

Sample 3
Species: human
Medium: microsomes or S9
Tested at: 2 µM
Time: 0.5 h
SMILES	remaining compound [%]
O=C(Nc1cc(F)cc(F)c1)N1CCC(O)(CO)C1 (centres unmarked)	98.4
Cc1cc2cc(CN(Cc3cccs3)S(=O)(=O)c3ccc(F)cc3)c(=O)[nH]c2cc1C	9.48
CC(=O)N1CCC(C(=O)N2CCN(c3cc(Cl)ccc3C)CC2)CC1	88.3
c1ccc(CCNCc2cccc(Oc3nnnn3-c3ccccc3)c2)cc1	9.19
Cc1ccc2oc(=O)c(/C=C(\O)CC(C)C)nc2c1	67.9
CC1(C)C=C(N(Cc2ncc[nH]2)c2ccc(Cl)cc2Cl)c2ncccc2O1	0.0985
CN(C)c1nc2n(c(=O)n1)CCN2C(=O)Nc1ccccc1	23.6

Sample 4
Compound: CNC(=O)Nc1ccc2c(c1)[C@@]1(CC2)OC(=O)N(CC(=O)N(Cc2ccc(F)cc2)[C@@H](C)C(F)(F)F)C1=O
Tested at: 1 µM
target	effect on	method	remaining binding
Cyclin-G-associated kinase (GAK, Homo sapiens, UniProt O14976)	cell-free assay	competition with immobilised ligand	100%
Receptor-type tyrosine-protein kinase FLT3 (FLT3, Homo sapiens, UniProt P36888)	cell-free assay	competition with immobilised ligand	96%
Tyrosine-protein kinase ABL1, phosphorylated (ABL1, Homo sapiens, UniProt P00519)	cell-free assay	competition with immobilised ligand	84%
Serine/threonine-protein kinase Sgk2 (SGK2, Homo sapiens, UniProt Q9HBY8)	cell-free assay	competition with immobilised ligand	88%
Receptor tyrosine-protein kinase erbB-4 (ERBB4, Homo sapiens, UniProt Q15303)	cell-free assay	competition with immobilised ligand	100%
Tyrosine-protein kinase JAK3, JH1 (JAK3, Homo sapiens, UniProt P52333)	cell-free assay	competition with immobilised ligand	91%
Calcium/calmodulin-dependent protein kinase type II subunit delta (CAMK2D, Homo sapiens, UniProt Q13557)	cell-free assay	competition with immobilised ligand	100%
Activin receptor type-2A (ACVR2A, Homo sapiens, UniProt P27037)	cell-free assay	competition with immobilised ligand	100%
ALK tyrosine kinase receptor (ALK, Homo sapiens, UniProt Q9UM73, C1156Y)	cell-free assay	competition with immobilised ligand	100%
Wee1-like protein kinase 2 (WEE2, Homo sapiens, UniProt P0C1S8)	cell-free assay	competition with immobilised ligand	100%
Dual serine/threonine and tyrosine protein kinase (DSTYK, Homo sapiens, UniProt Q6XUX3)	cell-free assay	competition with immobilised ligand	89%
Vascular endothelial growth factor receptor 1 (FLT1, Homo sapiens, UniProt P17948)	cell-free assay	competition with immobilised ligand	100%
Receptor-type tyrosine-protein kinase FLT3 (FLT3, Homo sapiens, UniProt P36888, D835Y)	cell-free assay	competition with immobilised ligand	96%
Discoidin domain-containing receptor 2 (DDR2, Homo sapiens, UniProt Q16832)	cell-free assay	competition with immobilised ligand	100%
Calcium/calmodulin-dependent protein kinase kinase 2 (CAMKK2, Homo sapiens, UniProt Q96RR4)	cell-free assay	competition with immobilised ligand	99%
Casein kinase I isoform epsilon (CSNK1E, Homo sapiens, UniProt P49674)	cell-free assay	competition with immobilised ligand	80%
Phosphatidylinositol 3-kinase catalytic subunit type 3 (PIK3C3, Homo sapiens, UniProt Q8NEB9)	cell-free assay	competition with immobilised ligand	96%
Receptor-type tyrosine-protein kinase FLT3 (FLT3, Homo sapiens, UniProt P36888, K663Q)	cell-free assay	competition with immobilised ligand	84%
Vascular endothelial growth factor receptor 2 (KDR, Homo sapiens, UniProt P35968)	cell-free assay	competition with immobilised ligand	84%
Leukocyte tyrosine kinase receptor (LTK, Homo sapiens, UniProt P29376)	cell-free assay	competition with immobilised ligand	100%
Serine/threonine-protein kinase SIK1 (SIK1, Homo sapiens, UniProt P57059)	–	competition binding	90%
Serine/threonine-protein kinase WNK4 (WNK4, Homo sapiens, UniProt Q96J92)	cell-free assay	competition with immobilised ligand	100%

Repeated from above (sample 4):
target	effect on	method	remaining binding
Receptor-type tyrosine-protein kinase FLT3 (FLT3, Homo sapiens, UniProt P36888)	cell-free assay	competition with immobilised ligand	96%
Tyrosine-protein kinase ABL1, phosphorylated (ABL1, Homo sapiens, UniProt P00519)	cell-free assay	competition with immobilised ligand	84%
Serine/threonine-protein kinase Sgk2 (SGK2, Homo sapiens, UniProt Q9HBY8)	cell-free assay	competition with immobilised ligand	88%
Receptor tyrosine-protein kinase erbB-4 (ERBB4, Homo sapiens, UniProt Q15303)	cell-free assay	competition with immobilised ligand	100%
Tyrosine-protein kinase JAK3, JH1 (JAK3, Homo sapiens, UniProt P52333)	cell-free assay	competition with immobilised ligand	91%
